Measurements pooled from the literature.
Each line is one published result; not all experiments were run side by side. ± marks the error that the study gave. Ends that are not written are not given here.
Spike glycoprotein: Spike glycoprotein (Severe acute respiratory syndrome coronavirus 2, UniProt P0DTC2)
rep main protease: Replicase polyprotein 1ab, main protease (rep, Severe acute respiratory syndrome coronavirus 2, UniProt P0DTD1)

COc1ccc(CC(=O)NC2CCN(Cc3ccc(-c4ccccc4OC)cc3)C2)cc1 (centres unmarked)
maximum response (SARS-CoV-2; cytopathic effect; USA_WA1/2020; retest, 8-point, duplicates): 48.3%

NC(=O)CCNC(=O)c1ccccc1S
EC50 (HIV-1; viral replication; human PBMC, subtype B 92BR014, dual-tropic clinical isolate): 4.15 ± 0.54 µM

O=c1c(O)c(-c2ccc(O)cc2)oc2cc(O)cc(O)c12
Kd (Spike glycoprotein; binding, biolayer interferometry): 33.3 µM

NTNSSPDDQIGYY
frequency of responding donors (AIM; peptide, CD8+ T cells from PBMC, human donors; HLA-A*01:01 restricted, unit not given; baseline: positive over tested donors): 33

Cc1cc(/C=C/C#N)cc(C)c1Nc1ccnc(Nc2ccc(C#N)cc2)n1
EC50 (HIV-1; viral replication, single-round infection; RT mutant E40K): 0.0003 ± 4e-05 µM

Cl.Oc1ccc2[nH]cc(CCCCN3CC=C(c4ccccc4)CC3)c2c1
maximal inhibition (HeLa; Ebola VLP entry): 90%

COc1cc(/C=C2\CCCN([C@@H](C)c3ccc(F)cc3)C2=O)ccc1-n1cnc(C)c1
inhibition (rep main protease; viral replication, mKate2 reporter; SARS-CoV-2; 20 µM): -0.0348%

RLWLCWKCRSKNPLL
responding donors (human CD4 T cells; AIM; peptide): 7%

CCN(CC)CCNC(=O)c1[nH]c2ccccc2c1Sc1ccc(Cl)cc1
maximum response (SARS-CoV-2; cytopathic effect; USA_WA1/2020; round 2, 5-point): 105%

Cc1cn([C@H]2C[C@H](N=[N+]=[N-])[C@@H](CO)O2)c(=O)[nH]c1=O
EC50 (HIV-1; viral replication; human PBMC, subtype G G3, CCR5-tropic clinical isolate): 0.00427 ± 0.005 µM

COP(=O)(OC)OC=C(Cl)Cl
Vmax (rat CYP2D; bufuralol 1'-hydroxylation; liver microsomes; concentration not given): 0.81 ± 0.06 nmol/min/mg protein

CC[C@H](C)[C@H](NC(=O)[C@H](CC(C)C)NC(=O)[C@H](Cc1c[nH]c2ccccc12)NC(=O)[C@H](CCC(N)=O)NC(=O)[C@@H](NC(=O)[C@H](Cc1ccccc1)NC(=O)[C@H](C)NC(=O)[C@H](CCCCNC(=O)COCCOCCNC(=O)COCCOCCNC(=O)CC[C@H](NC(=O)CCCCCCCCCCCCCCCCCCC(=O)O)C(=O)O)NC(=O)[C@H](CCC(N)=O)NC(=O)[C@H](C)NC(=O)[C@@H](NC(=O)[C@H](CCCCN)NC(=O)[C@H](CC(=O)O)NC(=O)[C@H](CC(C)C)NC(=O)C(C)(C)NC(=O)[C@@H](NC(=O)[C@H](CO)NC(=O)[C@H](Cc1ccc(O)cc1)NC(=O)[C@H](CC(=O)O)NC(=O)[C@H](CO)NC(=O)[C@@H](NC(=O)[C@H](Cc1ccccc1)NC(=O)[C@@H](NC(=O)CNC(=O)[C@H](CCC(=O)O)NC(=O)C(C)(C)NC(=O)[C@@H](N)Cc1ccc(O)cc1)[C@@H](C)O)[C@@H](C)O)[C@@H](C)CC)[C@@H](C)CC)C(C)C)C(=O)N[C@@H](C)C(=O)NCC(=O)NCC(=O)N1CCC[C@H]1C(=O)N[C@@H](CO)C(=O)N[C@@H](CO)C(=O)NCC(=O)N[C@@H](C)C(=O)N1CCC[C@H]1C(=O)N1CCC[C@H]1C(=O)N1CCC[C@H]1C(=O)N[C@@H](CO)C(N)=O
subjects with adverse events (item: Cough; healthy subjects; 5/5/8/10 mg titrated, multiple ascending dose): 0%

CCN1CCN(c2cc(C)c3cc(NC(=O)c4cccc(Cl)c4)ccc3n2)CC1
maximum response (SARS-CoV-2; cytopathic effect; USA_WA1/2020; round 1, 5-point): 94.9%

GsMTx4
washout recovery time constant (stretch-activated cation channel, rat; ion current, outside-out patch clamp; rat astrocytes; 500-ms pressure steps every 2 s, -50 mV): 4.7 ± 1.7 s

COc1ccc(CCNC(=O)c2cc(Nc3ccccc3)nc3ccccc23)cc1OC
AC50 (SARS-CoV-2; cytopathic effect, cell-based CPE; USA_WA1/2020; round 1, 5-point dilution): 12.6 µM

CCOP(=S)(OCC)Oc1nc(Cl)c(Cl)cc1Cl
Vmax (rat CYP1A; ethoxyresorufin O-deethylation; liver microsomes; concentration not given): 0.27 ± 0.09 nmol/min/mg protein

CCCC(=O)OCSc1ccccc1C(=O)NCCC(N)=O
EC50 (HIV-1; viral replication; human PBMC, subtype F 93BR019, CXCR4-tropic clinical isolate): 3.52 ± 2.62 µM

Cl.O=C(O)/C=C/c1ccc(Cn2ccnc2)cc1
inhibition (rep main protease; reporter gene (Gaussia luciferase), inhibitor; 20 µM): 1.47%

Cc1cccc(N2CCN(C(=O)C3CCN(Cc4nc(-c5ccc(Cl)cc5)oc4C)CC3)CC2)c1C
maximum response (SARS-CoV-2; cytopathic effect; USA_WA1/2020; round 1, 5-point): 108%

AQYTSALLAGTITSG
responding donors (human CD4 T cells; AIM; peptide): 9%

QPLRKLCILHRNPGRCYQKIPAFYYNQKKKQCEGFTWSGCGGNSNRFKTIEECRRTCIRK (dendrotoxin I; ends and bridges not checked; cysteine pairing not given here; sequence looked up)
time in long-lived DTX substate (maxi-KCa channel, rat muscle; channel block, planar bilayer single-channel; 460 nM, internal): ~97%

AENSVAYSNNSIAIP
responding donors (human CD4 T cells; AIM; peptide): 17%

Cc1cc(/C=C/C#N)cc(C)c1-n1cnc2cnc(Nc3ccc4cc(C#N)ccc4c3)nc21
EC50 (HIV-1; viral replication, single-round infection; RT mutant L234I): < 0.0023 µM

O=c1cc(-c2ccccc2)oc2c(O)c(O)ccc12
Kd (Spike glycoprotein; binding, biolayer interferometry): 39.7 µM

VNLTTRTQLPPAYTN
responding donors (human CD4 T cells; AIM; peptide): 8%

Cc1ccc(-c2cccc(CN3CCCC(c4nc5ccc(C)cc5c(=O)[nH]4)C3)c2)c(C)c1 (centres unmarked)
AC50 (SARS-CoV-2; cytopathic effect, cell-based CPE; USA_WA1/2020): 12.6 µM

Cc1nc2n(n1)CC(=O)N[C@@H](C(C)C)CN(Cc1ccccn1)CC(=O)N[C@@H](CC(C)C)c1nc(cs1)C(=O)N[C@H]2Cc1ccccc1
remaining activity (Lassa mammarenavirus; viral replication; Huh-7; 10 µM, 72 h): 90%

Cn1c(Cn2ccc(C(F)(F)F)c(Oc3cc(Cl)cc(C#N)c3)c2=O)n[nH]c1=O
EC50 (HIV-1; viral replication, single-round infection; RT mutant G190A): 0.0012 ± 0.0004 µM

Cn1cnc(Cn2c(=O)[nH]/c(=N\c3cc4cn(C)nc4cc3Cl)n(Cc3cc(F)c(F)cc3F)c2=O)n1
patients with adverse event (human, severe renal impairment; oral, 375 mg, hypertriglyceridaemia TEAE, Moderate severity): 0%

Cc1cc(C(C)(C)CC(C)(C)C)ccc1OCCOCC[N+](C)(C)Cc1ccccc1.[Cl-]
maximal inhibition (HeLa; Ebola VLP entry): 69%

CC[C@H](C)[C@H](NC(=O)[C@H](Cc1ccc(O)cc1)NC(=O)[C@H](Cc1c[nH]c2ccccc12)NC(=O)[C@H](CC(C)C)NC(C)=O)C(=O)N[C@@H](CCCCN)C(N)=O
transition enthalpy (DSC; SOPC/cholesterol 7/3 bilayers; 5 mol%, pH 7.40): 1 kcal/mol

O=C(C1CC(=O)N(C2CC2)C1)N1CCC2(CC1)Cc1cccc(c1)Oc1cccc(c1)CCNC2=O (centres unmarked)
Emax (Lassa mammarenavirus; viral replication; Huh-7; concentration not given): 12.5%

FLHFLPRVFSAVGNI
responding donors (human CD4 T cells; AIM; peptide): 9%

CCc1c(C(=O)C(N)=O)c2c(OCC(=O)O)cccc2n1Cc1ccccc1
viability difference (C2C12; 1 µM, added: WB venom; baseline: venom alone): 9.21%

COc1ccccc1-c1cccc(CN2CCCC(C(=O)NCc3ccc(F)cc3)C2)c1 (centres unmarked)
AC50 (SARS-CoV-2; cytopathic effect, cell-based CPE; USA_WA1/2020; round 1, 5-point dilution): 12.6 µM

TNCYDYCIPYNSVTS
responding donors (human CD4 T cells; AIM; peptide): 7%

O=C(NCCCN1CCCCCC1)c1ccc2c(c1)sc1nc(-c3ccccc3)cn12
efficacy (SARS-CoV-2; cytopathic effect; USA_WA1/2020; retest, 8-point, duplicates): 63.8%

COc1cc(C)c(-c2ccc(CN(C)C)cc2)cc1C
remaining activity (Lassa mammarenavirus; viral replication; Huh-7; 10 µM, 72 h): 35%

CNC(=O)[C@@H](NC(=O)[C@H](CC(C)C)[C@H](O)C(=O)NO)C(C)(C)C
remaining fibrinogen γ chain (human fibrinogen; SDS-PAGE; Daboia russelii; concentration not given, unit not given, added: WB venom; baseline: untreated fibrinogen): 0.338

Nc1ncnc2c([C@@H]3N[C@H](CO)[C@@H](O)[C@H]3O)c[nH]c12
inhibition (Marburg virus; viral RNA in cell lysate; HeLa, Musoke; 0.4 µM, 1 h): 25.1%

Cc1nc2n(n1)CC(=O)N[C@@H](C(C)C)CN(C(=O)C1CCC1)CC(=O)N[C@@H](CC(C)C)c1nc(cs1)C(=O)N[C@H]2Cc1ccccc1
remaining activity (Lassa mammarenavirus; viral replication; Huh-7; 10 µM, 72 h): 81%

O=C1Nc2ccc(Cl)cc2[C@@](C#CC2CC2)(C(F)(F)F)O1
EC50 (HIV-1; viral replication, single-round infection; RT mutant Y181I): 0.0009 ± 0.0002 µM

O=C(Nc1cccc(-c2cc3ccccc3[nH]2)c1)C1CCN(C(=O)C2CC=CCC2)CC1 (centres unmarked)
remaining activity (Lassa mammarenavirus; viral replication; Huh-7; 10 µM, 72 h): 55%

FTISVTTEI
positive donors (human PBMC CD8+ T cells; T cell response; peptide): 2 donors

Excerpt of the above:
CCN1CCN(c2cc(C)c3cc(NC(=O)c4cccc(Cl)c4)ccc3n2)CC1
maximum response (SARS-CoV-2; cytopathic effect; USA_WA1/2020; round 1, 5-point): 94.9%

O=C(NCCCN1CCCCCC1)c1ccc2c(c1)sc1nc(-c3ccccc3)cn12
efficacy (SARS-CoV-2; cytopathic effect; USA_WA1/2020; retest, 8-point, duplicates): 63.8%

QPLRKLCILHRNPGRCYQKIPAFYYNQKKKQCEGFTWSGCGGNSNRFKTIEECRRTCIRK (dendrotoxin I; ends and bridges not checked; cysteine pairing not given here; sequence looked up)
time in long-lived DTX substate (maxi-KCa channel, rat muscle; channel block, planar bilayer single-channel; 460 nM, internal): ~97%

Cn1c(Cn2ccc(C(F)(F)F)c(Oc3cc(Cl)cc(C#N)c3)c2=O)n[nH]c1=O
EC50 (HIV-1; viral replication, single-round infection; RT mutant G190A): 0.0012 ± 0.0004 µM

O=C(Nc1cccc(-c2cc3ccccc3[nH]2)c1)C1CCN(C(=O)C2CC=CCC2)CC1 (centres unmarked)
remaining activity (Lassa mammarenavirus; viral replication; Huh-7; 10 µM, 72 h): 55%

Cc1cn([C@H]2C[C@H](N=[N+]=[N-])[C@@H](CO)O2)c(=O)[nH]c1=O
EC50 (HIV-1; viral replication; human PBMC, subtype G G3, CCR5-tropic clinical isolate): 0.00427 ± 0.005 µM
